Measurements collected from several papers.
Each line is one published result; not all experiments were run side by side.
Matrix: plasma

SMILES	host	route	dose	notes	Cmax
CCCCCOc1ccc(-c2ccc(-c3ccc(C(=O)N[C@H]4C[C@@H](O)[C@@H](OCC[N+](C)(C)C)NC(=O)[C@@H]5[C@@H](O)[C@@H](C)CN5C(=O)[C@H]([C@@H](C)O)NC(=O)[C@H]([C@H](O)[C@@H](O)c5ccc(O)cc5)NC(=O)[C@@H]5C[C@@H](O)CN5C(=O)[C@H]([C@@H](C)O)NC4=O)cc3)cc2)cc1	human	subcutaneous	10 mg	single dose	108 ng/mL
O=c1[nH]c(Cc2ccccn2)nc2c1cnn2C1CCOCC1	male human	oral	0.5 mg	single dose	3.54 nM
C=C(C)[C@@H]1CC[C@]2(NCCN3CCS(=O)(=O)CC3)CC[C@]3(C)[C@H](CC[C@@H]4[C@@]5(C)CC=C(C6=CC[C@@](COc7ncccc7C#N)(C(=O)O)CC6)C(C)(C)[C@@H]5CC[C@]43C)[C@@H]12	human	oral	100 mg	single dose, fed, tablet	525 ng/mL
O[C@H]1CCCN[C@@H]1CCCn1cnc2c(Cl)c(Cl)ccc21	human	oral	600 mg	single dose, healthy volunteers	213 ng/mL
CC[C@@]1(O)C(=O)OCc2c1cc1n(c2=O)Cc2cc3c(CN(C)C)c(O)ccc3nc2-1	human	oral	2.5 mg	multiple doses, patients	6.64 ng/mL
c1cc([C@H]2CC[C@]3(CC2)OO[C@]2(O3)C3CC4CC(C3)CC2C4)ccc1OCCN1CCOCC1	human	oral	800 mg	single dose, fasted	730 ng/mL
CC[C@H](C)[C@H](NC(=O)[C@@H](N)CCCNC(=N)N)C(=O)N[C@H](C(=O)N1CCC[C@H]1C(=O)N[C@@H](C)C(N)=O)C(C)C	human	intravenous	0.15 mg/kg	single dose, healthy volunteers	510 ng/mL
COc1cccc(C2(O)CCCCC2CN(C)C)c1 (centres unmarked)	human	oral	100 mg	single dose, fasted	346 ng/mL
